Measurements collected from several papers.
A part holds a random share of what one study measured. Substitutions count along the parent as printed.

Series 1
Target: PABPC1L2, full length, GST fusion (mouse, UniProt A0ABA7IW68)
Technique: RNAcompete
Molecule type: RNA
Medium: in vitro
Concentration: 20 nM
Setting: 7-mer, probes averaged, single round
Reference: mean of 7-mers
Direction: higher = stronger binding
Target sequence (chain): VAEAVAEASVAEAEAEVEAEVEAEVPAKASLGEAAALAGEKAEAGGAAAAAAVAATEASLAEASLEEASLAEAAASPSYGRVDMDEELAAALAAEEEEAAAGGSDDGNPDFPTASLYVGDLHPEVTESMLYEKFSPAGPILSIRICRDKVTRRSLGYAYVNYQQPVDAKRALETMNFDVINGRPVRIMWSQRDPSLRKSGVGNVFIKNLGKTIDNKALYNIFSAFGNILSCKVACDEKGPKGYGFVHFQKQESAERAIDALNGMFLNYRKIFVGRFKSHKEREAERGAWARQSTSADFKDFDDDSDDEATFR
For `GUGAAUU`, the 7-mer Z-score was -0.182.
With `AGUGGAA` the 7-mer Z-score was 0.109.
`AUUGUGU` gave a 7-mer Z-score of -0.354.
For `GCCGACG`, the 7-mer Z-score was -0.18.
`CACUCCC` gave a 7-mer Z-score of -0.264.
With `UCCAGCC` the 7-mer Z-score was -0.414.
`ACGGUAG` has a 7-mer Z-score of -0.0663.
The 7-mer Z-score of `CAGUGCA` is reported as -0.211.

Series 2
Target: TAR DNA-binding protein 43, full length, His tag (TARDBP, Homo sapiens, UniProt Q13148, residues 1-414)
Technique: RNA Bind-n-Seq
Molecule type: RNA
Medium: in vitro
Concentration: 20 nM
Setting: 6-mer, flanks averaged, single round
Together with: 150 mM LiCl
Reference: input library
Direction: higher = stronger binding
Under “6-mer enrichment (R)”, `CAGACC` is recorded as 0.833.
`GUUCGG` — result for “6-mer enrichment (R)”: 1.06.
`CUACCC`: “6-mer enrichment (R)” 0.981.
Under “6-mer enrichment (R)”, `CUCACG` is recorded as 0.82.
`UCACAG`: “6-mer enrichment (R)” 0.82.
`CCCAGA` — result for “6-mer enrichment (R)”: 0.893.
For `UCCUAU`, “6-mer enrichment (R)” read 0.921.
For `UCACCC`, “6-mer enrichment (R)” read 1.02.

Series 3
Target: HLA class I histocompatibility antigen, A alpha chain, allele A*80:01 (Homo sapiens, UniProt P04439)
Observed: peptide-MHC binding
Molecule type: peptide
Concentration: concentration not given
`PSYQLPLPM`: binding “inactive”.
For `RMMATKDSF`, binding read “inactive”.
Under binding, `ARLSSPIVL` is recorded as “inactive”.

Series 4
Target: CCNB2, cyclin fold, Cln2 fusion (human)
Technique: yeast growth competition, sequencing
Medium: yeast
Setting: strong parent motif
Reference: not given
Direction: higher = stronger binding
Starting sequence: viral docking peptide; TSVRRALFTGGSD
`G10H`: “normalised enrichment score” 0.568.
`A6F`: “normalised enrichment score” 0.703.
Under “normalised enrichment score”, `L7Q` is recorded as 0.0853.

Some of these lines once more (series 2):
For `UCCUAU`, “6-mer enrichment (R)” read 0.921.
For `UCACCC`, “6-mer enrichment (R)” read 1.02.
